# Measured values collected from several papers.
SMILES,assay,system,conditions,endpoint,value
C=C(C)[C@@H]1CCC(C)=C[C@H]1c1c(O)cc(CCCCC)cc1O,,human,"750 mg, trial 17074, with: rifampicin 600 mg",subjects with Death,0%
CNC(=O)n1ccc2cc(Oc3ccnc(NC(=O)c4ccc(C5CCN(CCO)CC5)cc4)c3)c(OCCOC)cc21,,healthy human,"oral, 35 mg, fed",subjects with TEAEs,7.7%
Cc1ncc2n1-c1ccc(Cl)cc1C(c1ccccc1F)=NC2,,human,"oral, dose not given",subjects with serious treatment-related TEAE,0%
Cc1ncc2n1-c1ccc(Cl)cc1C(c1ccccc1F)=NC2,measured: blood creatinine increased,humans,"oral, dose not given",subjects with TEAEs,0%
C[C@]1(CO)Cc2ncn(-c3ccc(C#N)c(Cl)c3)c2C(=O)O1,,"human, Chinese",80 mg single dose,subjects with any TEAE,50%
COc1ccc2c(c1)[C@]13CCCC[C@@H]1[C@H](C2)N(C)CC3,,human,"oral, dose not given",subjects with TEAE leading to death,0%
CC(=O)N(C)[C@H]1CCN(C(=O)c2cnc3c(c2)C[C@](C)(c2ccc(F)cc2)N3)C1,,healthy male human,"oral, 60 mg once daily, multiple rising dose, with: midazolam",subjects with drug-related AEs,37.5%
CC[C@H]1[C@@H](O)[C@@H]2[C@H](CC[C@]3(C)[C@@H]([C@H](C)CCNC(=O)NS(=O)(=O)c4ccc(C(C)(C)C)cc4)CC[C@@H]23)[C@@]2(C)CC[C@@H](O)C[C@@H]12,,human,"concentration not given, study, with: itraconazole",subjects with TEAEs,20.8%
NCCCC[C@@H]1NC(=O)[C@@H](Cc2c[nH]c3ccccc23)NC(=O)[C@H](c2ccccc2)NC(=O)[C@@H]2C[C@@H](OC(=O)NCCN)CN2C(=O)[C@H](Cc2ccccc2)NC(=O)[C@H](Cc2ccc(OCc3ccccc3)cc2)NC1=O,,healthy human volunteers,600 µg twice daily,subjects with adverse event Fatigue,9%

# Excerpt of the above:
SMILES,assay,system,conditions,endpoint,value
Cc1ncc2n1-c1ccc(Cl)cc1C(c1ccccc1F)=NC2,measured: blood creatinine increased,humans,"oral, dose not given",subjects with TEAEs,0%
